# Measurements from different studies.
# Organism: Escherichia coli
SMILES,test,test system,setting,MIC
COc1c(NC(=O)c2ccc(NC(=O)[C@H](CC(N)=O)NC(=O)c3ccc(NC(=O)[C@@H](N)Cc4ccccc4)c(OC)c3O)c(OC)c2O)ccc(C(=O)Nc2ccc(C(=O)O)cc2)c1O,,empty cosmid vector,"16 h, 37 °C",> 16 µg/mL
CC[C@H](C)[C@H](NC(=O)[C@@H](CCCNC(=N)N)NC(=O)[C@H](CCCNC(=N)N)NC(=O)[C@@H]1CCCN1C(=O)[C@@H]1CCCN1C(=O)[C@H](CCCNC(=N)N)NC(=O)[C@@H]1CCCN1C(=O)[C@H](CCCNC(=N)N)NC(=O)[C@@H]1CCCN1C(=O)[C@H](CC(C)C)NC(=O)[C@H](Cc1ccc(O)cc1)NC(=O)[C@@H]1CCCN1C(=O)[C@H](Cc1ccc(O)cc1)NC(=O)[C@H](CCCCN)NC(=O)[C@H](CC(=O)O)NC(=O)[C@@H](N)C(C)C)C(=O)N[C@@H](Cc1ccc(O)cc1)C(=O)N[C@@H](CC(N)=O)C(=O)N[C@H](CCCNC(=N)N)C(N)=O,broth microdilution,BW25113,"18 h, 37 °C, 25% MHB2",16 µg/mL
CC1(C)[C@H](NC(=O)/C(=N\OCc2c(Cl)cccc2Cl)c2csc(N)n2)C(=O)N1OS(=O)(=O)O,agar dilution,"CDC 1001728, NDM-1",,8 µg/mL
CC[C@H](C)[C@H](NC(=O)[C@@H](CCCNC(=N)N)NC(=O)[C@H](CCCNC(=N)N)NC(=O)[C@@H](NC(=O)[C@H](Cc1c[nH]c2ccccc12)NC(=O)[C@H](CCCNC(=N)N)NC(=O)[C@@H]1CCCN1C(=O)[C@H](CCCNC(=N)N)NC(=O)[C@@H]1CCCN1C(=O)[C@H](CC(C)C)NC(=O)[C@H](Cc1ccc(O)cc1)NC(=O)[C@@H]1CCCN1C(=O)[C@@H]1CCCN1C(=O)[C@H](CCCCN)NC(=O)[C@H](CC(=O)O)NC(=O)[C@@H](N)C(C)C)[C@@H](C)O)C(=O)N[C@@H](Cc1ccc(O)cc1)C(=O)N[C@@H](CC(N)=O)C(=O)N[C@H](CCCNC(=N)N)C(N)=O,broth microdilution,BW25113,"18 h, 37 °C, 25% MHB2",8 µg/mL
CC[C@H](C)[C@H](NC(=O)[C@@H](CCC(=O)O)NC(=O)[C@H](CC(C)C)NC(=O)c1cccc(-c2ccccn2)n1)C(=O)N[C@H]1CCCCNC(=O)[C@H](CC(N)=O)NC(=O)[C@@H](CC(=O)O)NC(=O)[C@H](Cc2c[nH]cn2)NC(=O)[C@@H](Cc2ccccc2)NC(=O)[C@H]([C@@H](C)CC)NC(=O)[C@@H](CCCN)NC1=O,,ATCC 25922,"18 h, 37 °C, 0.3 mM ZnSO4 LB",> 64 µg/mL
CCCCCCCC(=O)N[C@@H](CCN)C(=O)N[C@H](C(=O)N[C@@H](CCN)C(=O)N[C@H]1CCNC(=O)[C@H]([C@@H](C)O)NC(=O)[C@H](CCN)NC(=O)[C@H](CCN)NC(=O)[C@H](Cc2ccc(F)cc2)NC(=O)[C@@H](CC(C)C)NC(=O)[C@H](CCN)NC1=O)[C@@H](C)O,broth microdilution,"mcr-1, colistin-resistant",,2 to 4 µg/mL
CC[C@H](C)[C@H](NC(=O)[C@@H](CCCNC(=N)N)NC(=O)[C@H](CCCNC(=N)N)NC(=O)[C@@H](NC(=O)[C@H](Cc1c[nH]c2ccccc12)NC(=O)[C@H](CCCNC(=N)N)NC(=O)[C@@H]1CCCN1C(=O)[C@H](CCCNC(=N)N)NC(=O)[C@@H]1CCCN1C(=O)[C@H](CC(C)C)NC(=O)[C@H](Cc1ccc(O)cc1)NC(=O)[C@@H]1CCCN1C(=O)[C@@H]1CCCN1C(=O)[C@H](CCCCN)NC(=O)[C@H](CC(=O)O)NC(=O)[C@@H](N)C(C)C)C(C)C)C(=O)N[C@@H](Cc1ccc(O)cc1)C(=O)N[C@@H](CC(N)=O)C(=O)N[C@H](CCCNC(=N)N)C(N)=O,broth microdilution,ATCC 25922,"18 h, 37 °C, 25% MHB2",16 µg/mL
CC[C@H](C)[C@H](NC(=O)CNC(=O)[C@H](CCCCN)NC(=O)[C@H](CCCCN)NC(=O)[C@H](CCC(N)=O)NC(=O)[C@H](CC(C)C)NC(=O)[C@H](CCCCN)NC(=O)[C@H](CC(C)C)NC(=O)[C@H](CC(C)C)NC(=O)[C@H](CCCCN)NC(=O)[C@H](CCCCN)NC(=O)[C@H](CC(C)C)NC(=O)[C@H](CC(C)C)NC(=O)[C@H](CCCCN)NC(=O)[C@H](CCSC)NC(=O)[C@H](C)NC(=O)[C@H](CCCCN)NC(=O)[C@@H]1CCCN1C(=O)[C@H](C)N)C(=O)O,,"BL21(DE3), Mueller-Hinton broth",20 h,1.96 µM
CC[C@H](C)[C@H](NC(=O)[C@H](Cc1c[nH]c2ccccc12)NC(=O)[C@H](CCCNC(=N)N)NC(=O)[C@@H]1CCCN1C(=O)[C@H](CCCNC(=N)N)NC(=O)[C@@H]1CCCN1C(=O)[C@H](CC(C)C)NC(=O)[C@H](Cc1ccc(O)cc1)NC(=O)[C@@H]1CCCN1C(=O)[C@@H]1CCCN1C(=O)[C@H](CCCCN)NC(=O)[C@H](CC(=O)O)NC(=O)[C@@H](N)C(C)C)C(=O)N[C@@H](CCCNC(=N)N)C(=O)N[C@H](CCCNC(=N)N)C(=O)N[C@H](C(=O)N[C@@H](Cc1ccc(O)cc1)C(=O)N[C@@H](CC(N)=O)C(=O)N[C@H](CCCNC(=N)N)C(N)=O)[C@@H](C)CC,broth microdilution,BW25113,"18 h, 37 °C, 25% MHB2",32 µg/mL
CC[C@H](C)[C@H](NC(=O)[C@@H](NC(=O)[C@H](CCCCN)NC(=O)[C@H](CCCCN)NC(=O)[C@@H](NC(=O)[C@H](Cc1c[nH]c2ccccc12)NC(=O)[C@H](CCCCN)NC(=O)[C@H](Cc1c[nH]c2ccccc12)NC(=O)[C@H](CC(C)C)NC(=O)[C@H](CCCCN)NC(=O)[C@H](CCCCN)NC(=O)[C@@H](N)C(C)C)[C@@H](C)CC)C(C)C)C(N)=O,,,"24 h, 37 °C, Mueller-Hinton broth, no additive",32 µM
Cc1ccnc(-c2cc(C(=O)NCCCCCC(=O)N[C@@H](CCCNC(=N)N)C(=O)N[C@@H](Cc3c[nH]c4ccccc34)C(=O)N[C@@H](CCCNC(=N)N)C(=O)N[C@@H](Cc3c[nH]c4ccccc34)C(=O)N[C@@H](CCCNC(=N)N)C(=O)N[C@@H](Cc3c[nH]c4ccccc34)C(N)=O)ccn2)c1,,"ATCC 25922, susceptible","18 h, 37 °C, LED light 1.57 mW for 10 min",16 µM
CC[C@H](C)[C@H](NC(=O)[C@H](Cc1c[nH]c2ccccc12)NC(=O)c1ccccc1)C(=O)N[C@H](C(=O)N[C@@H](Cc1ccc(O)cc1)C(=O)N[C@@H](CCCCN)C(=O)N[C@@H](Cc1c[nH]c2ccccc12)C(=O)N1CCC[C@@H]1C(=O)N[C@@H](CCCNC(=N)N)C(=O)N[C@@H](CCCCN)C(=O)N[C@@H](CCCCN)C(=O)N[C@H](C(=O)N[C@@H](CCCNC(=N)N)C(=O)N[C@@H](Cc1ccc(O)cc1)C(=O)N[C@@H](Cc1c[nH]c2ccccc12)C(=O)N[C@H](C(=O)NCC(=O)N1CCC[C@H]1C(N)=O)[C@@H](C)O)C(C)C)C(C)C,,DH5α,"16 h, 37 °C",> 100 µM
CC[C@H](C)[C@H](NC(=O)[C@@H](CCCNC(=N)N)NC(=O)[C@H](CCCNC(=N)N)NC(=O)[C@@H]1CCCN1C(=O)[C@@H]1CCCN1C(=O)[C@H](CCCNC(=N)N)NC(=O)[C@@H]1CCCN1C(=O)[C@H](CCCNC(=N)N)NC(=O)[C@@H]1CCCN1C(=O)[C@H](CCSC)NC(=O)[C@H](Cc1ccc(O)cc1)NC(=O)[C@@H]1CCCN1C(=O)[C@@H]1CCCN1C(=O)[C@H](CCCCN)NC(=O)[C@H](CC(=O)O)NC(=O)[C@@H](N)C(C)C)C(=O)N[C@@H](Cc1ccc(O)cc1)C(=O)N[C@@H](CC(N)=O)C(=O)N[C@H](CCCNC(=N)N)C(N)=O,broth microdilution,BW25113,"18 h, 37 °C, 25% MHB2",16 µg/mL
CSCC[C@H](NC=O)C(=O)N[C@@H](CCCNC(=N)N)C(=O)N[C@H](C(=O)NCC(=O)N[C@@H](CC(N)=O)C(=O)N[C@@H](C)C(=O)N[C@@H](CC(N)=O)C(=O)NCC(=O)N1CCN(c2cc3c(cc2F)c(=O)c(C(=O)O)cn3C2CC2)CC1)[C@@H](C)O,multistep resistance selection,K-12 MG1655,7 days after day 7,6.24 µM
C#CCO/N=C(\C(=O)N[C@@H]1C(=O)N(OS(=O)(=O)O)C1(C)C)c1nsc(N)n1,agar dilution,"08-85, mcr-1",,16 µg/mL
N=C(N)NCCC[C@@H]1NC(=O)[C@H](CCCNC(=N)N)NC(=O)[C@@H](CCCNC(=N)N)NC(=O)[C@@H](CCCNC(=N)N)NC(=O)[C@@H](C(c2ccccc2)c2ccccc2)NC(=O)[C@H](Cc2c[nH]c3ccccc23)NC(=O)[C@@H](C(c2ccccc2)c2ccccc2)NC1=O,,"ATCC BAA-2452, NDM-1 CRE",,8 µg/mL
CC(C)C[C@H](NC(=O)[C@@H](NC(=O)[C@H](CCCCN)NC(=O)[C@H](CCCCN)NC(=O)[C@H](CC(C)C)NC(=O)[C@H](Cc1c[nH]c2ccccc12)NC(=O)[C@H](CCCCN)NC(=O)[C@H](Cc1c[nH]c2ccccc12)NC(=O)[C@H](CC(C)C)NC(=O)[C@H](CCCCN)NC(=O)[C@H](CCCCN)NC(=O)[C@@H](N)C(C)C)C(C)C)C(N)=O,,,"24 h, 37 °C, Mueller-Hinton broth, FeCl3 4 µM",16 µM
CCCCCCCC(=O)N[C@@H](CCN)C(=O)N[C@H](C(=O)N[C@@H](CCN)C(=O)N[C@H]1CCNC(=O)[C@H]([C@@H](C)O)NC(=O)[C@H](CCN)NC(=O)[C@H](CCN)NC(=O)[C@H](CC(C)C)NC(=O)[C@@H](Cc2ccc(Br)cc2)NC(=O)[C@H](CCN)NC1=O)[C@@H](C)O,broth microdilution,ATCC 25922,,0.125 to 0.25 µg/mL
CC[C@H](C)[C@H](NC(=O)[C@H](CCCNC(=N)N)NC(=O)[C@@H]1CCCN1C(=O)[C@H](CCCNC(=N)N)NC(=O)[C@H](Cc1ccccc1)NC(=O)[C@H](Cc1c[nH]cn1)NC(=O)[C@H](CCCNC(=N)N)NC(=O)[C@H](CC(C)C)NC(=O)[C@H](CCCCN)NC(=O)CNC(=O)[C@H](CC(C)C)NC(=O)[C@H](Cc1ccccc1)NC(=O)[C@H](CCCNC(=N)N)NC(=O)CNC(=O)[C@H](Cc1ccccc1)NC(=O)[C@H](CCCNC(=N)N)NC(=O)CNC(=O)[C@H](CCCNC(=N)N)NC(=O)[C@H](CCC(N)=O)NC(=O)[C@@H](NC(=O)[C@@H](N)CC(C)C)[C@@H](C)CC)C(=O)N[C@@H](CCCCN)C(=O)N[C@@H](Cc1ccccc1)C(=O)N[C@@H](CCCCN)C(=O)NCC(=O)N[C@@H](CCCCN)C(=O)N[C@@H](C)C(=O)NCC(=O)N[C@@H](Cc1c[nH]c2ccccc12)C(=O)N[C@H](C(=O)N[C@H](C(=O)NCC(=O)O)C(C)C)[C@@H](C)O,broth microdilution,K88,,0.64 log10 µg/mL

# Some of these lines once more:
SMILES,test,test system,setting,MIC
CSCC[C@H](NC=O)C(=O)N[C@@H](CCCNC(=N)N)C(=O)N[C@H](C(=O)NCC(=O)N[C@@H](CC(N)=O)C(=O)N[C@@H](C)C(=O)N[C@@H](CC(N)=O)C(=O)NCC(=O)N1CCN(c2cc3c(cc2F)c(=O)c(C(=O)O)cn3C2CC2)CC1)[C@@H](C)O,multistep resistance selection,K-12 MG1655,7 days after day 7,6.24 µM
CC[C@H](C)[C@H](NC(=O)[C@@H](CCCNC(=N)N)NC(=O)[C@H](CCCNC(=N)N)NC(=O)[C@@H](NC(=O)[C@H](Cc1c[nH]c2ccccc12)NC(=O)[C@H](CCCNC(=N)N)NC(=O)[C@@H]1CCCN1C(=O)[C@H](CCCNC(=N)N)NC(=O)[C@@H]1CCCN1C(=O)[C@H](CC(C)C)NC(=O)[C@H](Cc1ccc(O)cc1)NC(=O)[C@@H]1CCCN1C(=O)[C@@H]1CCCN1C(=O)[C@H](CCCCN)NC(=O)[C@H](CC(=O)O)NC(=O)[C@@H](N)C(C)C)C(C)C)C(=O)N[C@@H](Cc1ccc(O)cc1)C(=O)N[C@@H](CC(N)=O)C(=O)N[C@H](CCCNC(=N)N)C(N)=O,broth microdilution,ATCC 25922,"18 h, 37 °C, 25% MHB2",16 µg/mL
